Published values gathered from unrelated publications.
Numbered parts are unrelated; each lists some results of a single study.
Chain of UniProt Q8NE63 (whole entry, looked up): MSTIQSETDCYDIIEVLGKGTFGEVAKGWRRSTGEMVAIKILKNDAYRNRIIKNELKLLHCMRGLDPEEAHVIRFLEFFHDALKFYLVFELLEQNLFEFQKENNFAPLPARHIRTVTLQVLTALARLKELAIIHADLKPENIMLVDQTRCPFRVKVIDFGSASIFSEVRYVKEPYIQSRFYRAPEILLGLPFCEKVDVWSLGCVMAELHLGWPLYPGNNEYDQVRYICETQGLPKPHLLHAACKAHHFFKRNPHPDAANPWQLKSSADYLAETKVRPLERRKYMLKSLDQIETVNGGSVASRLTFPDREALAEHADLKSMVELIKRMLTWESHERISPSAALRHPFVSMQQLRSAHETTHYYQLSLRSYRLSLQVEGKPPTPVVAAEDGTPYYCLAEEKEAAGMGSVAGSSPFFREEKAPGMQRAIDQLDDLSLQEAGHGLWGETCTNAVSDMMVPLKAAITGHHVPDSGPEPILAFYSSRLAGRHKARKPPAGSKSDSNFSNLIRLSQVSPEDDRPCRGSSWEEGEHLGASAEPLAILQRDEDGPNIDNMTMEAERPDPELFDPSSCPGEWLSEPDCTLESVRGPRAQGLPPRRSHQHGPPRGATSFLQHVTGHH
Chain of UniProt Q92630 (whole entry, looked up): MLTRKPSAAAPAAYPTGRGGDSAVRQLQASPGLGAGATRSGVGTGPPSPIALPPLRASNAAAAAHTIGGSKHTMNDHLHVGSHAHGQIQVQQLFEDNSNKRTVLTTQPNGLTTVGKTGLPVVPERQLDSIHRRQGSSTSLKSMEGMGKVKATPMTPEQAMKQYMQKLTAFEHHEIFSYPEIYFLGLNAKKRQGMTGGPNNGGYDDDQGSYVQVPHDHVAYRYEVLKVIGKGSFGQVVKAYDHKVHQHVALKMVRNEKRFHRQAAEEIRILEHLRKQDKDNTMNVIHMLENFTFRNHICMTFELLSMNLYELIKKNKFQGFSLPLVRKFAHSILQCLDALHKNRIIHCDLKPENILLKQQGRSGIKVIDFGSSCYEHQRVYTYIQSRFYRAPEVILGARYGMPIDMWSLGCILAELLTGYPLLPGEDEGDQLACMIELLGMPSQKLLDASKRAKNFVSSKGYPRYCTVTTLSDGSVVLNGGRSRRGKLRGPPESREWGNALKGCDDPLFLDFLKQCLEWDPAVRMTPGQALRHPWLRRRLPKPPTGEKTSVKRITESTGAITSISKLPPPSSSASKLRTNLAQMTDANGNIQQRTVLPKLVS
Chain of UniProt Q8IU85 (whole entry, looked up): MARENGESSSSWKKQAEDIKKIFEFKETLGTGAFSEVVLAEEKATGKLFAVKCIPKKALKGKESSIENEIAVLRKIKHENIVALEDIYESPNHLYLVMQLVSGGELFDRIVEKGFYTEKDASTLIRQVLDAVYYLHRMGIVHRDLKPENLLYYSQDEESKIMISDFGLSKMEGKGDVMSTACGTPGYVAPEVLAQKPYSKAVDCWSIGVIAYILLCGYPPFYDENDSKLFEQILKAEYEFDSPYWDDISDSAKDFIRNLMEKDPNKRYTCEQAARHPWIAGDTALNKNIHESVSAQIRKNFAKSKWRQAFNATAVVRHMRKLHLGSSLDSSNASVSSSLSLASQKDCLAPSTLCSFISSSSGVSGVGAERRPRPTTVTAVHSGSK
Chain of UniProt P28482 (whole entry, looked up): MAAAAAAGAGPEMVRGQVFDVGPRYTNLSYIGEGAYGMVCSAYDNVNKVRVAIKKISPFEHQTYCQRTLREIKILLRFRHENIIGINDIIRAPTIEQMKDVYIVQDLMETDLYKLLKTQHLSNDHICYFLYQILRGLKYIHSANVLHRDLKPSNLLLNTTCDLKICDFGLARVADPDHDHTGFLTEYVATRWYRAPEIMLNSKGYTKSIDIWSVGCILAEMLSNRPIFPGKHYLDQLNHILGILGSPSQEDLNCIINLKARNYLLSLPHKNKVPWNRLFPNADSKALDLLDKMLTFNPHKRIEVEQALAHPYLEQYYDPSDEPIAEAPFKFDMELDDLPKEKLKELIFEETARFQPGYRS

Block 1
Target: DNA polymerase theta, ATPase domain (POLQ, Homo sapiens, UniProt O75417)
Chain of UniProt O75417 (whole entry, unmodified, looked up): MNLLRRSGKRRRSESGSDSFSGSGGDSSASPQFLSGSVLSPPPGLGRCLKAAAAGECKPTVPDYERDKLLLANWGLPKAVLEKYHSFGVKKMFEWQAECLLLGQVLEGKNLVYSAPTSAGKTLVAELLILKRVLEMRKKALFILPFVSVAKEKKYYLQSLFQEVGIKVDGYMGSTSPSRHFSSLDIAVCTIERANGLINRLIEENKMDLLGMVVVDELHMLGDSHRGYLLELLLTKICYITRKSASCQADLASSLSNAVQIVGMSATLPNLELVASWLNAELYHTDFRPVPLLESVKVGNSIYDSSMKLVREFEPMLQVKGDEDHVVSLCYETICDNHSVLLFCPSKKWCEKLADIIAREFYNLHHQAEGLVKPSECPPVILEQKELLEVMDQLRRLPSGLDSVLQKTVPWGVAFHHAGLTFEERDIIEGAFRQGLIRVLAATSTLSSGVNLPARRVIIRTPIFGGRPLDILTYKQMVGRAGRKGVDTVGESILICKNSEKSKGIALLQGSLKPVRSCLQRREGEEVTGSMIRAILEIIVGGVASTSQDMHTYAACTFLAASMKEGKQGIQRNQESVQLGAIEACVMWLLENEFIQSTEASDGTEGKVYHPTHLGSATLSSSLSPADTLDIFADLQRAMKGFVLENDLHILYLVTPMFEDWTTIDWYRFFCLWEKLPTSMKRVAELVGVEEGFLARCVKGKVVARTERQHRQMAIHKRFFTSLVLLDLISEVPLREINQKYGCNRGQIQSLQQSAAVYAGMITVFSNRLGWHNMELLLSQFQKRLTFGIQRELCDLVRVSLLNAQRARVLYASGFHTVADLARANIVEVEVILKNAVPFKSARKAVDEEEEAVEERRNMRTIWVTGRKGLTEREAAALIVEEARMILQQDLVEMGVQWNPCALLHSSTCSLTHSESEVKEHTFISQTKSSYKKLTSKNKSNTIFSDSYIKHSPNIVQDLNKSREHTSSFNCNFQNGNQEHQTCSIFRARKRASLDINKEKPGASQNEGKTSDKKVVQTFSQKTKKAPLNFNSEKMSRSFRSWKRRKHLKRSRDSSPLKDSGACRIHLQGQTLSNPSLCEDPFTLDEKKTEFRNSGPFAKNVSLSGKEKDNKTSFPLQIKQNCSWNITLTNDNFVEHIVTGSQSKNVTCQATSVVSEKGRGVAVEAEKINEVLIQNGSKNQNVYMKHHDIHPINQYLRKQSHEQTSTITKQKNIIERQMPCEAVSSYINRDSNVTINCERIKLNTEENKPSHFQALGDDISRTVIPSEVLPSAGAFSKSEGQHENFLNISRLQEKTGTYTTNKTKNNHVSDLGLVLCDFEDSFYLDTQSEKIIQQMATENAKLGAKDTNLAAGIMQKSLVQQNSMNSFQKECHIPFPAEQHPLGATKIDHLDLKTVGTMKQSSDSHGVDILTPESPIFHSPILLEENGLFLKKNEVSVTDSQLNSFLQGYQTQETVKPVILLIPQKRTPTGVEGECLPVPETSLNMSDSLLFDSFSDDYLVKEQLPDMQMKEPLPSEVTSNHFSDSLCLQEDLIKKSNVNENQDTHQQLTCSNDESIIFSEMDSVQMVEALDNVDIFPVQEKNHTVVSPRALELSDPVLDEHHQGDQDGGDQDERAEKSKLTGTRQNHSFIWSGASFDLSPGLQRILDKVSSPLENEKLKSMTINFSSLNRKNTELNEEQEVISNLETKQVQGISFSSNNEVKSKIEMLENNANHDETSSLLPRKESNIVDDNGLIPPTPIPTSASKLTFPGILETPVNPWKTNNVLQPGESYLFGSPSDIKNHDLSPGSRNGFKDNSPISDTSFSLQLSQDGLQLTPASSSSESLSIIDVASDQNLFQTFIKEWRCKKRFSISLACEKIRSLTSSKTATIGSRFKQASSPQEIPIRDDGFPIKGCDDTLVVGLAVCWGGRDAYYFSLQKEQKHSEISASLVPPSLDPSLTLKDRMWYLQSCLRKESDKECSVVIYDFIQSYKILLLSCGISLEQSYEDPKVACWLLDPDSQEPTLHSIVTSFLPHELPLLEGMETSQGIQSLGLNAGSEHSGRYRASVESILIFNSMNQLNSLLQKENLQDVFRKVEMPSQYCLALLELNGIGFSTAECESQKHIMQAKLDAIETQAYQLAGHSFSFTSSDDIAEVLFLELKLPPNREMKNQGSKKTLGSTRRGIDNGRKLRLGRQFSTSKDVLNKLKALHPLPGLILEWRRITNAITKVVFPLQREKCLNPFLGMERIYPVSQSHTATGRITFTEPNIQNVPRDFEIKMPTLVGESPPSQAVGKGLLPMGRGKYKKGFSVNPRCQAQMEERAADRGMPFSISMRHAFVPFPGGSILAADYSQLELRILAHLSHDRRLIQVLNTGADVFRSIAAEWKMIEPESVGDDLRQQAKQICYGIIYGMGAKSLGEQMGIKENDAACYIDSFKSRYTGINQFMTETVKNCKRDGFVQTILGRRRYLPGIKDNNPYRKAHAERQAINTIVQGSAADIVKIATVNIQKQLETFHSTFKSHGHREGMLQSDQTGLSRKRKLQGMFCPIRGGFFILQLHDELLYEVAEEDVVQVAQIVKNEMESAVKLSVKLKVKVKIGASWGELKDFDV
Observed: enzyme activity
Mode: inhibitor
Concentration: 77 µM
Reference: untreated
| SMILES | remaining activity [%] |
| --- | --- |
| CN1CCN(CCOc2cc(OC3CCOCC3)c3c(Nc4c(Cl)ccc5c4OCO5)ncnc3c2)CC1 | 97.1 |
| NC(CO)C(=O)NNCc1ccc(O)c(O)c1O (centres unmarked) | 104 |
| O=C1NC(=O)/C(=C\c2ccc3nccnc3c2)S1 | 100 |
| O=C(O)c1cc(=O)c2c(OCC(O)COc3cccc4oc(C(=O)O)cc(=O)c34)cccc2o1 | 105 |
| CN(CCCCCCCCCCN(C)C(=O)Oc1cccc([N+](C)(C)C)c1)C(=O)Oc1cccc([N+](C)(C)C)c1 | 103 |
| O=c1ccn([C@@H]2O[C@H](COP(=O)(O)OP(=O)(O)O)[C@@H](O)[C@H]2O)c(=O)[nH]1 | 105 |
| COC(=O)[C@H]1[C@H]2C[C@H]3c4[nH]c5ccccc5c4CCN3C[C@H]2CC[C@@H]1O | 110 |

Block 2
Cell line: mouse MPNST tumor cells
Method: high-content nuclear imaging
Refers to: cell number
Concentration: 10 µM
Time: 12 h
Notes: mean of 2 replicates
Reference: plate mean
Direction: higher = more cells
| Compound | nuclei count [z-score] |
| --- | --- |
| O=C(COc1ccccc1Cl)Nc1cc(Cl)ccc1C(=O)O | -0.017 |
| C/C(=C\C(=O)Nc1ccccc1C(=O)O)c1ccc2ccccc2c1 | 0.275 |
| CNCC(O)c1ccc(OC(=O)C(C)(C)C)c(OC(=O)C(C)(C)C)c1 (centres unmarked) | 4 |
| CCOC(=O)C1=C[C@]2(CC)CCCN3CCc4c(n1c1ccccc41)[C@@H]32 | 3.9 |
| CCCCOc1cc(C(=O)NCCN(CC)CC)c2ccccc2n1 | -3.59 |
| O=c1[nH]c2cc(Cl)ccc2c(O)c1-c1cccc(Oc2ccccc2)c1 | 1.46 |
| Cc1ccccc1N(C)C(=O)c1ccc([S+]([O-])c2nccs2)c([N+](=O)[O-])c1 (centres unmarked) | -6.52 |
| Cc1cc(C(C)(C)C)cc(C)c1CC1=NCCN1 | 2.07 |

Block 3
Target: Calcium/calmodulin-dependent protein kinase kinase 1 (CAMKK1, Homo sapiens, UniProt Q8N5S9)
Chain of UniProt Q8N5S9 (whole entry, looked up): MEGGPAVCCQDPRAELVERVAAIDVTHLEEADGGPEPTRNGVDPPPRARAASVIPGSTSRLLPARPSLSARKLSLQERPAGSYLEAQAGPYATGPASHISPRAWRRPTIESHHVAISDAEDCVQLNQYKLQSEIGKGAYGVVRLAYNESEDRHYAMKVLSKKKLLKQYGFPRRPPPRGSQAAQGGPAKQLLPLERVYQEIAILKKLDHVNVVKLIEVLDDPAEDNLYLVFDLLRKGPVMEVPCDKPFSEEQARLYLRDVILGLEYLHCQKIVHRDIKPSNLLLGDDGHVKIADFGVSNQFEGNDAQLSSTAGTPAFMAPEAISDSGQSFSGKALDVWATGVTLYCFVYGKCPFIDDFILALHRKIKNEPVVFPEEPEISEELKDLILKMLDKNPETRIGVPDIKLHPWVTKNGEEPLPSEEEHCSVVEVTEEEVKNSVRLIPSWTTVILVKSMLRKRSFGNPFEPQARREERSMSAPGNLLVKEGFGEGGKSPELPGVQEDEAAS
Observed: enzyme activity
Mode: inhibitor
Concentration: 0.5 µM
Reference: control
| SMILES | remaining activity |
| --- | --- |
| O=C1NC(=O)C(c2cn(CCCn3ccnc3)c3ccccc23)=C1Nc1ccccc1 | 96.3% |
| Nc1[nH]nc2nc3ccccc3nc12 | 112% |
| Cc1cccc(-c2[nH]c(C(C)(C)C)nc2-c2ccc3c(c2)OCO3)n1 | 103% |
| CCOC(=O)c1c(C)[nH]c(/C=C2\C(=O)Nc3ccccc32)c1C | 95.3% |
| CO[C@H]1C[C@@H]2CC[C@@H](C)[C@@](O)(O2)C(=O)C(=O)N2CCCC[C@H]2C(=O)O[C@H]([C@H](C)C[C@@H]2CC[C@@H](O)[C@H](OC)C2)CC(=O)[C@H](C)/C=C(\C)[C@@H](O)[C@@H](OC)C(=O)[C@H](C)C[C@H](C)/C=C/C=C/C=C/1C | 118% |
| Nc1ncnc2n[nH]c(Nc3ccc(F)cc3)c12 | 101% |
| COc1ccc(CNC(=O)Nc2ncc([N+](=O)[O-])s2)cc1 | 119% |
| N#CC(C#N)=C(N)/C(C#N)=C/c1ccc(O)cc1 | 104% |
| Cn1c2ccccc2c2c3c(c4c5ccccc5n(CCC#N)c4c21)CNC3=O | 19.3% |
| C#Cc1cccc(Nc2ncnc3cc(OCCOC)c(OCCOC)cc23)c1 | 98.7% |

Block 4
SMILES: COc1ccc2cc(OCC3(C(=O)O)CN(C(=O)c4ccc(F)cc4)C3)ccc2c1
Observed: cell-free assay
Method: competition with immobilised ligand
Concentration: 1 µM
| target | remaining binding |
| --- | --- |
| CAMK1D (Homo sapiens, UniProt Q8IU85) | 100% |
| MAPK1 (Homo sapiens, UniProt P28482) | 97% |
| ULK2 (Homo sapiens, UniProt Q8IYT8) | 89% |
| DYRK2 (Homo sapiens, UniProt Q92630) | 84% |
| ULK1 (Homo sapiens, UniProt O75385) | 92% |
| HIPK4 (Homo sapiens, UniProt Q8NE63) | 100% |
| PIK3C2G (Homo sapiens, UniProt O75747) | 100% |

A few entries again (block 3):
| SMILES | remaining activity |
| --- | --- |
| C#Cc1cccc(Nc2ncnc3cc(OCCOC)c(OCCOC)cc23)c1 | 98.7% |
| CCOC(=O)c1c(C)[nH]c(/C=C2\C(=O)Nc3ccccc32)c1C | 95.3% |
